Assay results pooled from the literature.
Every numbered part comes from another study and shows a few of its results, in no order. Positions count from the first letter of the parent shown.

Set 1
Target: Max-binding protein MNT, bHLH-zipper, MAX partner unstated (MNT, Homo sapiens, UniProt Q99583, residues 220-300)
Method: protein-binding microarray
Form: double-stranded DNA, one strand shown
Sample: in vitro
Tested at: not given
Notes: k-mer, scored over probes, only values ≥0.25
Reading: higher = stronger binding
Construct (chain): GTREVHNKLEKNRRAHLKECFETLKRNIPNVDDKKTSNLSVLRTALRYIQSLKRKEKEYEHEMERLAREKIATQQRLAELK
Sequence	E-score
GTGTGGCA	0.254
CATGCGAG	0.395
AAGCACGT	0.446
CCCACACC	0.314
GCTCCCCA	0.32

Set 2
Target: Histone acetyltransferase KAT6A, winged helix 2, GST fusion (KAT6A, Homo sapiens, UniProt Q92794, residues 85-181)
Method: protein binding microarray
Form: double-stranded DNA, one strand shown
Sample: in vitro
Tested at: not given
Notes: 8-mer, flanks averaged, mean of 2 arrays, mostly near background
Relative to: not given
Reading: higher = stronger binding
Residues (chain): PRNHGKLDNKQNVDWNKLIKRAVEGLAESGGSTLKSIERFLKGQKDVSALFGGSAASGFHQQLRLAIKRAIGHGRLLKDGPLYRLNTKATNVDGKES
Sequence	E-score
GTATTGAA	0.00692
CTACGTAG	-0.139
GAGTTATA	-0.0998
ATACTGGC	-0.0509
CAACAAAG	0.0796
CACTCAGC	-0.077

Set 3
Target: CCNE2, cyclin fold, Cln2 fusion (human)
Method: yeast growth competition, sequencing
Sample: yeast
Notes: weak parent motif
Relative to: not given
Reading: higher = stronger binding
Starting sequence: CDC6 docking peptide (human); TLKGRRLVFDNQL; partner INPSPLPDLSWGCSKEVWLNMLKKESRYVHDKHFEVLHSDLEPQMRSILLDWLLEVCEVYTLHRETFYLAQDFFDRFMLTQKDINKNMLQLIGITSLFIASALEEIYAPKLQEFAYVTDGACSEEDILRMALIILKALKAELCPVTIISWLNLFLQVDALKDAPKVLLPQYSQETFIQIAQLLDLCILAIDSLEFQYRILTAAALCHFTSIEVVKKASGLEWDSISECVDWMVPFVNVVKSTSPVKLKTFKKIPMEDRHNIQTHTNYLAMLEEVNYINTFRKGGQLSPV
Change	normalised enrichment score
TTKGRRLVFDNQL [L2T]	0.441
TLKGRRLVPDNQL [F9P]	1
TNKGRRLVFDNQL [L2N]	0.0746
TLKGRRLVFNNQL [D10N]	1.25
TLKGRRLVFPNQL [D10P]	-0.256
TLKGRRLVFDTQL [N11T]	0.628
TLKGRRWVFDNQL [L7W]	1.03

Single results of other studies
Molecule	target	assay	system	setting	how to read	quantity	value
PhoQ, residues 284 288 289 292 302 303 WVSSAF	PhoP, residues 12 14 15 18 19 LYHSL (Escherichia coli, UniProt P23836)	Sort-seq, measured: YFP reporter	E. coli	PhoQ-PhoP variant library, added: 10 µM Mg2+	relative to: high Mg2+ state, higher = stronger signaling	fold induction	1.45

A few entries again (set 2):
Sequence	E-score
GAGTTATA	-0.0998
ATACTGGC	-0.0509
